Measured values from different studies.
Protocols differ between the studies behind these lines.

Structure (SMILES)	target or system	test	system	conditions	scale	endpoint	result
CN1CCC[C@H]1c1cccnc1	anti-compound antibody Fv	VH/VL dimerisation, split luciferase reporter	HEK293T			EC50	308 µM
C[C@H](NCc1ccc(OCc2ccccc2F)cc1)C(N)=O	seizure ion channel panel	ion current, inhibitor			lowest across channels	lowest IC30	7.01 µM
CC#C[C@]1(O)CC[C@H]2[C@@H]3CCC4=CC(=O)CCC4=C3[C@@H](c3ccc(N(C)C)cc3)C[C@@]21C	androgen receptor pathway	agonist		concentration not given	direction not given	AUC agonist score	0.00133
C[C@@H]1COCCN1c1cc(C2([S@](C)(=N)=O)CC2)nc(-c2cc[nH]c3nccc2-3)n1	NLRP3 inflammasome (mouse)		mouse BMDM	10 µM		inhibition	74.4%
N#Cc1ccc2c(-c3ccncc3)c(-c3ccc(F)cc3)nn2c1	orf19.3456 kinase Candida albicans	MIB/MS competition binding	Candida albicans cell lysate	10 µM	baseline: DMSO, lower = stronger binding	log2 fold change	0.145
N[C@@H](Cc1c[nH]c2ccccc12)C(=O)O		binding, equilibrium dialysis LC-MS		5 µM, thermostabilized A2AR-BRIL construct	baseline: no-protein control, direction not given	z-scored log2 fold change	0.635
C=CC(=O)N1CCC(C(=O)NCC(=O)N2CCN(c3nc(-c4cnc(N)nc4C(F)F)nc(N4CCOCC4)n3)CC2)CC1	FLT3 ITD/F691L	KINOMEscan		1 µM	baseline: vehicle	remaining binding	95%
C=CC(=O)N1CCC(COCC(=O)N2CCN(c3nc(-c4cnc(N)nc4C(F)F)nc(N4CCOC[C@@H]4C)n3)CC2)CC1	FLT3 ITD	KINOMEscan		1 µM		remaining binding	95%
COc1cc(/C=C2\SC(=O)NC2=O)cc(F)c1OCCNc1nc2c(cnn2C2CCCC2)c(=O)[nH]1	PDE1B, PDE9				baseline: PDE9 IC50 over PDE1B IC50	selectivity ratio	5 fold
CO[C@@H](C(=O)N1Cc2[nH]nc(NC(=O)c3ccc(N4CCN(C)CC4)cc3)c2C1)c1ccccc1	NLRP3 inflammasome (mouse)		mouse BMDM	10 µM		inhibition	-61%
c1coc(-c2n[nH]cc2-c2ccnc3ccccc23)c1	orf19.6492 Candida albicans	kinase binding, MIB/MS competition	Candida albicans lysate	10 µM	baseline: DMSO	log2 fold change	-0.06
Nc1nc2ccc(OC(F)(F)F)cc2s1	seizure ion channel panel	ion current, inhibitor			lowest across channels	lowest IC30	12 µM
CN1C[C@H](COc2nccc3c(NCc4ccco4)cc(Cl)nc23)OC1=O	human alpha-galactosidase A	activator	Fabry disease iPSC-cardiomyocytes	1 µM	baseline: untreated	enzyme activity	1.47 fold
Cc1n[nH]c2ccc(-c3cc(OC[C@@H](N)Cc4ccccc4)cnc3-c3ccoc3)cc12	orf19.3456 kinase Candida albicans	MIB/MS competition binding	Candida albicans cell lysate	100 nM	baseline: DMSO, lower = stronger binding	log2 fold change	-0.328
CN(C)CCOC1=Cc2ccccc2Sc2ccc(Cl)cc21	seizure ion channel panel	ion current, inhibitor			lowest across channels	lowest IC30	2.71 µM
Nc1ncc2c(n1)-c1c([nH]c3ccc(C#CC4CC4)cc13)CCCC2	FLT3 ITD F691L	scanMAX		1 µM	baseline: control	remaining binding	61%
CCC(C)(C)C(=O)O[C@H]1C[C@@H](C)C=C2C=C[C@H](C)[C@H](CC[C@@H]3C[C@@H](O)CC(=O)O3)[C@H]21	seizure ion channel panel	ion current, inhibitor			lowest across channels	lowest IC30	1.58 µM
COc1cnc(Nc2cccc(S(N)(=O)=O)c2)nc1N1CCN(c2ccccc2)CC1	human FLT3 ITD/D835V	binding, KINOMEscan		1000 nM	lower = stronger binding	percent of control	75%

Structure (SMILES)	target or system	test	system	conditions	scale	endpoint	result
c1ccc(-c2n[nH]cc2-c2ccnc3ccccc23)nc1	orf19.3456 kinase Candida albicans	MIB/MS competition binding	Candida albicans cell lysate	10 µM	baseline: DMSO, lower = stronger binding	log2 fold change	1.04
CCN=C1C=CC(=C(c2ccc(N(CC)CC)cc2)c2ccc(N(CC)CC)cc2)c2ccccc21.Cl	androgen receptor pathway	antagonist		concentration not given	direction not given	AUC antagonist score	0.814
CNC(=O)c1cccc(-c2ccc3c(N4CCOC[C@@H]4C)nc(N4CCOC[C@@H]4C)nc3n2)c1	NLRP3 inflammasome (mouse)		mouse BMDM	10 µM		inhibition	20.8%
N=C(NCCCSC[C@H]1O[C@@H](n2cnc3c(NCCCc4ccccc4)ncnc32)[C@H](O)[C@@H]1O)NCC1CCC1	CamA DNA adenine methyltransferase (Clostridioides difficile)	enzyme activity, inhibitor, MTase-Glo luminescence (SAH)		10 µM, 3 min, pH 7.5, 22 °C, together with: SAM 40 µM		inhibition	< 10%
COc1cc(F)c(F)c(Nc2ccc(I)cc2F)c1NS(=O)(=O)C1(C[C@H](O)CO)CC1	NLRP3 inflammasome (mouse)		mouse BMDM	10 µM		inhibition	-37.2%
OC[C@H]1O[C@H](OC[C@H]2O[C@H](O[C@]3(CO)O[C@H](CO)[C@@H](O)[C@@H]3O)[C@H](O)[C@@H](O)[C@@H]2O)[C@H](O)[C@@H](O)[C@H]1O		binding, equilibrium dialysis LC-MS		5 µM, thermostabilized A2AR-BRIL construct	baseline: no-protein control, direction not given	z-scored log2 fold change	0.163
O=C(NCC1CCOCC1)c1n[nH]cc1NC(=O)c1c(F)cccc1F	human FLT3 ITD D835V	scanMAX		1 µM	baseline: control	remaining binding	82%
C[C@H]1CN(C2COC2)CCN1c1ccc(Nc2cc(-c3ccnc(N4CCn5c(cc6c5CC(C)(C)C6)C4=O)c3CO)cn(C)c2=O)nc1	NLRP3 inflammasome (mouse)		mouse BMDM	10 µM		inhibition	-44.3%
Oc1ccccc1-c1n[nH]cc1-c1ccnc2ccccc12	SSK2 (Candida albicans)	kinase binding, MIB/MS competition	Candida albicans lysate	10 µM	baseline: DMSO	log2 fold change	0.31
N#Cc1ccn2c(-c3ccncc3)c(-c3ccc(F)cc3)nc2c1	orf19.3456 kinase Candida albicans	MIB/MS competition binding	Candida albicans cell lysate	10 µM	baseline: DMSO, lower = stronger binding	log2 fold change	-0.0719
N#Cc1ccc(COc2cccc(C3CCN(Cc4nc5ccc(C(=O)O)cc5n4C[C@@H]4CCO4)CC3)n2)c(F)c1	chloride channel					IC50	3.5 µM
Cn1ncc(Cl)c1-c1cc(C(=O)N[C@H](CN)Cc2cccc(F)c2)sc1Cl	NLRP3 inflammasome (mouse)		mouse BMDM	10 µM		inhibition	0.256%
CC(Nc1nc(N2CCCC2)nc2ccccc12)c1ccccc1 (centres unmarked)	importin α/β1	cMyc nuclear import, high content imaging	HeLa Kyoto reporter	1.58 µM, 2 h		cells with nuclear reporter	90.5%
N#CC1(c2ccc(NC(=O)c3cccnc3NCc3ccncc3)cc2)CCCC1	NLRP3 inflammasome (mouse)		mouse BMDM	10 µM		inhibition	64.2%
N=C(NCCCSC[C@H]1O[C@@H](n2cnc3c(NCCCc4ccccc4)ncnc32)[C@H](O)[C@@H]1O)NC1CC1	CamA DNA adenine methyltransferase (Clostridioides difficile)	enzyme activity, inhibitor, MTase-Glo luminescence (SAH)		10 µM, 3 min, pH 7.5, 22 °C, together with: SAM 40 µM		inhibition	< 10%
CN1CCN(CCOc2cc(OC3CCOCC3)c3c(Nc4c(Cl)ccc5c4OCO5)ncnc3c2)CC1	NLRP3 inflammasome (mouse)		mouse BMDM	10 µM		inhibition	27.9%
C[C@@H](c1ccc(-n2cnc3c(N)ncnc32)cc1)N1CCc2nn(C)c(Cc3ccccc3)c2C1=O	FLT3 ITD	KINOMEscan		100 nM	baseline: DMSO	remaining binding	86%

Repeated from above:
Structure (SMILES)	target or system	test	system	conditions	scale	endpoint	result
CO[C@@H](C(=O)N1Cc2[nH]nc(NC(=O)c3ccc(N4CCN(C)CC4)cc3)c2C1)c1ccccc1	NLRP3 inflammasome (mouse)		mouse BMDM	10 µM		inhibition	-61%
c1coc(-c2n[nH]cc2-c2ccnc3ccccc23)c1	orf19.6492 Candida albicans	kinase binding, MIB/MS competition	Candida albicans lysate	10 µM	baseline: DMSO	log2 fold change	-0.06
Nc1nc2ccc(OC(F)(F)F)cc2s1	seizure ion channel panel	ion current, inhibitor			lowest across channels	lowest IC30	12 µM
CN1C[C@H](COc2nccc3c(NCc4ccco4)cc(Cl)nc23)OC1=O	human alpha-galactosidase A	activator	Fabry disease iPSC-cardiomyocytes	1 µM	baseline: untreated	enzyme activity	1.47 fold
Cc1n[nH]c2ccc(-c3cc(OC[C@@H](N)Cc4ccccc4)cnc3-c3ccoc3)cc12	orf19.3456 kinase Candida albicans	MIB/MS competition binding	Candida albicans cell lysate	100 nM	baseline: DMSO, lower = stronger binding	log2 fold change	-0.328
CN(C)CCOC1=Cc2ccccc2Sc2ccc(Cl)cc21	seizure ion channel panel	ion current, inhibitor			lowest across channels	lowest IC30	2.71 µM
